Experimental data from different studies.
Parts stem from different laboratories: compare values within a part only. Values joined by “and” are separate records of one study, mostly repeats; a detail may differ.
UniProt P78356, sequence (whole entry, looked up): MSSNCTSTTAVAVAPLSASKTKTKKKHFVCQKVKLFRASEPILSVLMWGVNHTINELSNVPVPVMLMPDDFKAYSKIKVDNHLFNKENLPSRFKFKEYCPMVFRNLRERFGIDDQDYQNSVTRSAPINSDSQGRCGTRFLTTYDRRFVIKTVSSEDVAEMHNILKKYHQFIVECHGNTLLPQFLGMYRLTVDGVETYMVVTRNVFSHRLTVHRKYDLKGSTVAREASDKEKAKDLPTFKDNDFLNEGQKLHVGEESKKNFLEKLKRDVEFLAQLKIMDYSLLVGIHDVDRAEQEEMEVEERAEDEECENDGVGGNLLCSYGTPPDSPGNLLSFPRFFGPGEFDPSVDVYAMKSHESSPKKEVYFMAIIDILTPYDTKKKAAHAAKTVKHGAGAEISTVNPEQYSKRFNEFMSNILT
UniProt P28482, sequence (whole entry, looked up): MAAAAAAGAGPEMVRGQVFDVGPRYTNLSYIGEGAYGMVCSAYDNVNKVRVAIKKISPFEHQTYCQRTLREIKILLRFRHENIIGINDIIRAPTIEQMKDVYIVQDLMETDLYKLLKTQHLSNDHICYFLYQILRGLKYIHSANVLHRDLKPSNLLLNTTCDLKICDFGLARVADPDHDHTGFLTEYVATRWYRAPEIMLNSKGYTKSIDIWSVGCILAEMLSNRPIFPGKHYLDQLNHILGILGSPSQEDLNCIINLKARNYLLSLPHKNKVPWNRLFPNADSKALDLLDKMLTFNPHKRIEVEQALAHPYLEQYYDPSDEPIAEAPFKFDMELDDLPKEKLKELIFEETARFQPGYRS

Series 1
Target: Serine/threonine-protein kinase MRCK alpha (CDC42BPA, Homo sapiens, UniProt Q5VT25)
UniProt Q5VT25, sequence (whole entry, looked up): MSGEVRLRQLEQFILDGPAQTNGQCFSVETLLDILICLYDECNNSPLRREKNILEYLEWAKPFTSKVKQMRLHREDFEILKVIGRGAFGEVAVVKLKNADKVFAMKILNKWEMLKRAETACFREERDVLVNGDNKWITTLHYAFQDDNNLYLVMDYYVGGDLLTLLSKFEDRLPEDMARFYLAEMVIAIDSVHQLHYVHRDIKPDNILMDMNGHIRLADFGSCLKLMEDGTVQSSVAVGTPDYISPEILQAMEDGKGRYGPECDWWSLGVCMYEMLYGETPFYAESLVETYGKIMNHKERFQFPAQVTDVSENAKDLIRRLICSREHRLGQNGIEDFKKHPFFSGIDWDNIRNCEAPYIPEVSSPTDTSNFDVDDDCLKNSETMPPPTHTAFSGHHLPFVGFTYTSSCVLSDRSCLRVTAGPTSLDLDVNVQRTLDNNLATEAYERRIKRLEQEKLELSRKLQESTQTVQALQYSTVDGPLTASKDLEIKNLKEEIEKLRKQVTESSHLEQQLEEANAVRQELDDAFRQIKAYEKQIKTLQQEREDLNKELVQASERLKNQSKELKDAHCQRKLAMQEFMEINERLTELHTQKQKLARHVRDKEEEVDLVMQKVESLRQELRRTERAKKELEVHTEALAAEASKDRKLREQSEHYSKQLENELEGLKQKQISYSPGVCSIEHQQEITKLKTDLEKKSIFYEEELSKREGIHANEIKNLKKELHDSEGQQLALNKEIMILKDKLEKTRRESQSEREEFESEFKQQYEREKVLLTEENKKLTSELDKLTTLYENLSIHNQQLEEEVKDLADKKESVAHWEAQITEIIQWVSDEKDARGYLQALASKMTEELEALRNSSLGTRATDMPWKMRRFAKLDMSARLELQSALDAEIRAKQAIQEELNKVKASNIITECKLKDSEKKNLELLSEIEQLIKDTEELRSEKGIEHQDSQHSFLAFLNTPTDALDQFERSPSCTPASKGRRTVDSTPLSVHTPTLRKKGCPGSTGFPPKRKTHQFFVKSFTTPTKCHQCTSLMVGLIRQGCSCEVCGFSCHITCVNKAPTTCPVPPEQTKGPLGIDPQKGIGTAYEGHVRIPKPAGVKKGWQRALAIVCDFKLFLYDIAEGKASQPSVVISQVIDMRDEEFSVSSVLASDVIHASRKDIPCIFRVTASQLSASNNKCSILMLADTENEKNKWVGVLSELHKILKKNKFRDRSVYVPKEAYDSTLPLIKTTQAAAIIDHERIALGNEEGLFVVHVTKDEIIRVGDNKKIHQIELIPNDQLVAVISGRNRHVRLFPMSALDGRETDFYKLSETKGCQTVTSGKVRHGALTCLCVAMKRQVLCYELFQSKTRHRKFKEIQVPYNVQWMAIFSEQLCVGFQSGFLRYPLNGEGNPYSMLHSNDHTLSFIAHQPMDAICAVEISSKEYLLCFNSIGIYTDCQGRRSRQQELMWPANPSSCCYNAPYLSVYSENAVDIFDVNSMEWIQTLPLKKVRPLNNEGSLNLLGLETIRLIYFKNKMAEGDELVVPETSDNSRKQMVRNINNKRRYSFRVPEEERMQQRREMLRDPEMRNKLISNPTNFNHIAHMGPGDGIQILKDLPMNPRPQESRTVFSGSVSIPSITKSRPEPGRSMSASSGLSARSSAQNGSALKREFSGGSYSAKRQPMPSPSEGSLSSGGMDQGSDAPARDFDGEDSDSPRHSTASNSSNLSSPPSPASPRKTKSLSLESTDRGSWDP
Observed: enzyme activity
Action: inhibitor
Concentration: 0.5 µM
Baseline: control
`CCCC(=O)Oc1ccc2[nH]c(C(=O)c3cc4ccccc4[nH]3)cc2c1` has a remaining activity of 98%.
The remaining activity of `CC(C)(C)n1nc(Cc2cccc3ccccc23)c2c(N)ncnc21` is reported as 92.5%.
For `O=C1Cc2c([nH]c3ccc([N+](=O)[O-])cc23)-c2ccccc2N1`, the remaining activity was 96.2%.
`O=S(=O)(NCCNC/C=C/c1ccc(Br)cc1)c1cccc2cnccc12` gave a remaining activity of 97.5%.
For `N#CC(=C(N)Sc1ccc(N)cc1)c1ccccc1C(F)(F)F`, the remaining activity was 103%.
The remaining activity of `COc1cc(Nc2c(C#N)cnc3cc(OCCCN4CCN(C)CC4)c(OC)cc23)c(Cl)cc1Cl` is reported as 112%.
The remaining activity of `Cc1cc(Nc2nc(-c3ccccc3)nc3ccccc23)n[nH]1` is reported as 108%.
With `NC(=O)c1ccc(N(C(N)=O)c2c(F)cccc2F)nc1-c1ccc(F)cc1F` the remaining activity was 93.8%.
The remaining activity of `CC(=O)c1ccc(N2CCOCC2)cc1O` is reported as 100%.
For `Oc1ccc(Nc2nc(-c3ccc(Cl)cc3)cs2)cc1`, the remaining activity was 87.1%.
For `Cc1cncc2cccc(S(=O)(=O)N3CCCN(C(=O)CN)C[C@@H]3C)c12`, the remaining activity was 95.1%.
`O=C1NC(=O)C(c2c[nH]c3ccccc23)=C1c1c[nH]c2ccccc12` has a remaining activity of 89.9%.
`CSc1nc(-c2ccnc(N[C@@H](C)c3ccccc3)c2)c(-c2ccc(F)cc2)[nH]1` (racemic) has a remaining activity of 97.5%.
For `Nc1nccc(-c2c(-c3ccc(F)cc3)ncn2C2CCNCC2)n1`, the remaining activity was 101%.
`Nc1ncnc2c1cnn2-c1ccccc1` gave a remaining activity of 90.2%.
With `CCc1[nH]c(-c2ccc(OC)cc2)nc1-c1ccncc1` the remaining activity was 96.3%.
`Fc1ccc(-c2nc3n(c2-c2ccncc2)CCS3)cc1` gave a remaining activity of 88.7%.
The remaining activity of `COc1ccc(S(=O)(=O)N(CCO)c2ccccc2CN(C)CC=Cc2ccc(Cl)cc2)cc1` is reported as 100%.
The remaining activity of `CC[n+]1c(/C=C/N(C)c2ccccc2)n(-c2ccccc2)c2ccc(-c3nc4ccccc4s3)cc21` is reported as 102%.
`CC#CC(=O)Nc1cc2c(Nc3ccc(F)c(Cl)c3)ncnc2cn1` gave a remaining activity of 93.1%.
`Cc1ccc(NC2=CC(=O)c3sc(C)nc3C2=O)cc1` gave a remaining activity of 77.6%.

Series 2
Organism: Sarcocystis neurona
Observed: parasite growth
Concentration: 10 µM
Time: 96 h
Setting: first screen
Baseline: untreated
Under “log2 fold change”, `NS(=O)(=O)c1cc(C2(O)NC(=O)c3ccccc32)ccc1Cl` (stereo not drawn) is recorded as 0.33.
Under “log2 fold change”, `CN1CCN(CCCN2c3ccccc3Sc3ccc(Cl)cc32)CC1` is recorded as -0.56.
Under “log2 fold change”, `CC(C)[C@H]1CC[C@H](C(=O)N[C@H](Cc2ccccc2)C(=O)O)CC1` is recorded as 0.25.
`COc1cc(C)c(Cc2cnc(N)nc2N)cc1OC`: “log2 fold change” -1.94.
`COCCCOc1ccnc(C[S+]([O-])c2nc3ccccc3[nH]2)c1C` (stereo not drawn) — result for “log2 fold change”: 0.25.
`CC1CNc2c(cccc2S(=O)(=O)N[C@@H](CCCNC(=N)N)C(=O)N2CC[C@@H](C)C[C@@H]2C(=O)O)C1` (stereo partly drawn) — result for “log2 fold change”: -0.22.
`CC(C)NCC(O)COc1ccc(CC(N)=O)cc1` (stereo not drawn) — result for “log2 fold change”: -1.28.
`COc1ccc(-c2oc3c(CC=C(C)C)c(O[C@@H]4O[C@H](CO)[C@@H](O)[C@H](O)[C@H]4O)cc(O)c3c(=O)c2O[C@@H]2O[C@@H](C)[C@H](O)[C@@H](O)[C@H]2O)cc1`: “log2 fold change” 0.00321.
`C[C@H]1C[C@@H]2[C@H]([C@@H](O)C[C@@]3(C)[C@H]2CC[C@]3(O)C(=O)CO)[C@@]2(C)C=CC(=O)C=C12`: “log2 fold change” 0.19.
`Cc1[nH]c(=O)c(C#N)cc1-c1ccncc1` — result for “log2 fold change”: 0.28.
`CCn1cc(C(=O)O)c(=O)c2ccc(C)nc21`: “log2 fold change” 0.25.
For `CCCCNC(=O)NS(=O)(=O)c1ccc(C)cc1`, “log2 fold change” read 0.17.
Under “log2 fold change”, `CC(C[N+](C)(C)C)OC(N)=O` (stereo not drawn) is recorded as 0.12.

Series 3
Target: DNA polymerase theta, ATPase domain (POLQ, Homo sapiens, UniProt O75417)
UniProt O75417, sequence (whole entry, unmodified, looked up): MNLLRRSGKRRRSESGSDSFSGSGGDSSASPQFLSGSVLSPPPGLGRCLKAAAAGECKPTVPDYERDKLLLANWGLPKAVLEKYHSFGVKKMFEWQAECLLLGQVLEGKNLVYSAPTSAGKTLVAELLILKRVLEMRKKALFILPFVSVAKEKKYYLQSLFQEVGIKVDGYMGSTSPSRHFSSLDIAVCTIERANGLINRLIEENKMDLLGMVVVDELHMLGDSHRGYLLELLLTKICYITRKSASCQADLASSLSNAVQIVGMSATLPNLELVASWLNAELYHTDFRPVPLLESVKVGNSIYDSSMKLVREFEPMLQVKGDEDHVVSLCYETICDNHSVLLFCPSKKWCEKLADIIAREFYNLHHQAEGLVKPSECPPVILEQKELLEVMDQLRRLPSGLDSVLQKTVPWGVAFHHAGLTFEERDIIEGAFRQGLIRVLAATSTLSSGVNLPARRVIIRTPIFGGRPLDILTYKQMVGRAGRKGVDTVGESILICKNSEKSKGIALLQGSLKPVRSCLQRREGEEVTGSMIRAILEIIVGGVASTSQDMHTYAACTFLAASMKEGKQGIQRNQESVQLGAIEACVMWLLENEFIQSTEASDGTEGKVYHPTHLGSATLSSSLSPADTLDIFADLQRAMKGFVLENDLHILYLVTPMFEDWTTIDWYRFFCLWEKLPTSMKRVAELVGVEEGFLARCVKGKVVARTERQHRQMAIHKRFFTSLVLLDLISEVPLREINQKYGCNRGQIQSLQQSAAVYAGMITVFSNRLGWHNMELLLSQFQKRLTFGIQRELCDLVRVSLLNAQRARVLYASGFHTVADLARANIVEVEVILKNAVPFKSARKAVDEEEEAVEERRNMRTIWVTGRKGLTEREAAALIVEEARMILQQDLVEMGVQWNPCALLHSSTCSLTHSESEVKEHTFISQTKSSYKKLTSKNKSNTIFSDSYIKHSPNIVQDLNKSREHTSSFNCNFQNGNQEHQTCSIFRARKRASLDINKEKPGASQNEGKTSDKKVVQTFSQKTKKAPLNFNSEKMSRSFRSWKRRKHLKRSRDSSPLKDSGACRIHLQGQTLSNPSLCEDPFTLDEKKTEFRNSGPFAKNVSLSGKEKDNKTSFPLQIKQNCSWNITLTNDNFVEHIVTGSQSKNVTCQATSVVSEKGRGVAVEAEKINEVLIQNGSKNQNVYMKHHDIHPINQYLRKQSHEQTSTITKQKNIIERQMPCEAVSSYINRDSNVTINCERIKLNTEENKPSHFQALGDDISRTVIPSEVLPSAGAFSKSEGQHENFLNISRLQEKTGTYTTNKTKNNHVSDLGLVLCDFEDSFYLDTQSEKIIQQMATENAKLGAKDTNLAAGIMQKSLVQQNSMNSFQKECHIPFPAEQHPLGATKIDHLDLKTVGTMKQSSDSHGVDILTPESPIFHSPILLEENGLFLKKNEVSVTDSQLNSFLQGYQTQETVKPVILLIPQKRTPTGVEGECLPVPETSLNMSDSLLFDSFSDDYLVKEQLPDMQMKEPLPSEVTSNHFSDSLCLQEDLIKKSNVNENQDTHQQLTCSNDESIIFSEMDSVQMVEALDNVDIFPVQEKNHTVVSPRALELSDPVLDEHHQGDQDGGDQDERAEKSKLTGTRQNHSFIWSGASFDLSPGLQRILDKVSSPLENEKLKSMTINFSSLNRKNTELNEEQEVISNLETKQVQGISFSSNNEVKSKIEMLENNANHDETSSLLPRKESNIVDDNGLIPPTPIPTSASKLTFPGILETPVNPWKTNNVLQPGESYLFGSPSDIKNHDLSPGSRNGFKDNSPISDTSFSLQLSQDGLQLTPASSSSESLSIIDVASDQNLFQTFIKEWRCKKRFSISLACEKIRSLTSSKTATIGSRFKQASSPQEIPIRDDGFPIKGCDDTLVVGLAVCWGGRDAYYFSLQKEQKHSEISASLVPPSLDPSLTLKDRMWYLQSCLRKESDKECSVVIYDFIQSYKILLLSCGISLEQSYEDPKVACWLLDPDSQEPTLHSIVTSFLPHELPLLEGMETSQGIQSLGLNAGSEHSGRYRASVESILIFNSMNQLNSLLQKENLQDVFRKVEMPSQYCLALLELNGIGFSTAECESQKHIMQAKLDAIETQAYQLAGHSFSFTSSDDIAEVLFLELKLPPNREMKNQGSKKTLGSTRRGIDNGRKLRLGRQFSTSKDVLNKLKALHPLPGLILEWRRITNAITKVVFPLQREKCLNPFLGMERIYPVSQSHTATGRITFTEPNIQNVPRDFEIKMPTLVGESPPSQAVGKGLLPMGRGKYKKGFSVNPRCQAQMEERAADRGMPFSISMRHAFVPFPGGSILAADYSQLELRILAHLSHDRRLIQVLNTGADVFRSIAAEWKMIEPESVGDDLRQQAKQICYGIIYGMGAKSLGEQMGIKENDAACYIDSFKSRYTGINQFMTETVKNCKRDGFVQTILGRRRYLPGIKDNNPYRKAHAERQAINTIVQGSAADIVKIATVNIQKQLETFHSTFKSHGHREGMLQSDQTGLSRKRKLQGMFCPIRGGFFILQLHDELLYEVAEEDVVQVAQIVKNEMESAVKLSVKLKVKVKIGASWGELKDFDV
Observed: enzyme activity
Action: inhibitor
Concentration: 77 µM
Baseline: untreated
The remaining activity of `COc1cc(C(C)=O)ccc1OCCCN1CCC(c2noc3cc(F)ccc23)CC1` is reported as 112%.
With `CC(C)c1noc(N2CCC(COc3ccc(-c4ccc(S(C)(=O)=O)cc4)nc3)CC2)n1` the remaining activity was 97.9%.
The remaining activity of `CC[C@H](C)C(=O)O[C@H]1CCC=C2C=C[C@H](C)[C@H](CC[C@@H]3C[C@@H](O)CC(=O)O3)[C@H]21` is reported as 101% and 98.9%.
`NCCSSCCN` gave a remaining activity of 104%.
`CC(=O)Nc1ccccc1` has a remaining activity of 99.9%.
With `Cc1ccc(S(=O)(=O)Cc2nc(-c3ccc(C(=O)NCc4cccnc4)cc3)oc2C)cc1` the remaining activity was 102%.
`COc1cc2ncnc(Nc3ccc(Cl)cc3Cl)c2cc1OC` has a remaining activity of 88.1%.
`COc1cccc(NC(=O)/C=C/c2ccc(Cl)cc2)c1` has a remaining activity of 97.3%.
`CN1C(C)(C)CCCC1(C)C` has a remaining activity of 102%.

Series 4
SMILES: CS(=O)(=O)c1cc(C2(NC(=O)c3cncc4c3cnn4-c3ccc(F)cc3)CC2)ccn1
Concentration: 1 µM
The remaining binding was 100% (PIK3CA (Homo sapiens, UniProt P42336, H1047L); cell-free assay, competition with immobilised ligand).
The remaining binding was 88% (SNRK (Homo sapiens, UniProt Q9NRH2); cell-free assay, competition with immobilised ligand).
For FLT3 (Homo sapiens, UniProt P36888, D835Y); cell-free assay, competition with immobilised ligand: remaining binding read 98%.
The remaining binding was 100% (RET (Homo sapiens, UniProt P07949, V804L); cell-free assay, competition with immobilised ligand).
The remaining binding was 100% (PRKCH (Homo sapiens, UniProt P24723); cell-free assay, competition with immobilised ligand).
The remaining binding was 100% (PTK2 (Homo sapiens, UniProt Q05397); cell-free assay, competition with immobilised ligand).
MAPK13 (Homo sapiens, UniProt O15264); cell-free assay, competition with immobilised ligand — remaining binding: 93%.
It gave 100% for remaining binding (PIP4K2B (Homo sapiens, UniProt P78356); cell-free assay, competition with immobilised ligand).
The remaining binding was 100% (ACVR1 (Homo sapiens, UniProt Q04771); cell-free assay, competition with immobilised ligand).
It gave 100% for remaining binding (TEK (Homo sapiens, UniProt Q02763); cell-free assay, competition with immobilised ligand).
For FGFR2 (Homo sapiens, UniProt P21802); cell-free assay, competition with immobilised ligand: remaining binding read 100%.
The remaining binding was 58% (FLT3 (Homo sapiens, UniProt P36888, F691L/ITD); cell-free assay, competition with immobilised ligand).
For KIT (Homo sapiens, UniProt P10721, A829P); cell-free assay, competition with immobilised ligand: remaining binding read 100%.
It gave 81% for remaining binding (EGFR (Homo sapiens, UniProt P00533, L858R/T790M); cell-free assay, competition with immobilised ligand).
For MAPK1 (Homo sapiens, UniProt P28482); cell-free assay, competition with immobilised ligand: remaining binding read 94%.
The remaining binding was 94% (AAK1 (Homo sapiens, UniProt Q2M2I8); binding).
It gave 100% for remaining binding (ALK (Homo sapiens, UniProt Q9UM73, L1196M); cell-free assay, competition with immobilised ligand).
Insulin receptor (INSR, Homo sapiens, UniProt P06213); cell-free assay, competition with immobilised ligand — remaining binding: 100%.
The remaining binding was 100% (MTOR (Homo sapiens, UniProt P42345); cell-free assay, competition with immobilised ligand).
For LIM domain kinase 1 (LIMK1, Homo sapiens, UniProt P53667); cell-free assay, competition with immobilised ligand: remaining binding read 100%.

Excerpt of the above (series 1):
`Fc1ccc(-c2nc3n(c2-c2ccncc2)CCS3)cc1` gave a remaining activity of 88.7%.
The remaining activity of `COc1cc(Nc2c(C#N)cnc3cc(OCCCN4CCN(C)CC4)c(OC)cc23)c(Cl)cc1Cl` is reported as 112%.
For `N#CC(=C(N)Sc1ccc(N)cc1)c1ccccc1C(F)(F)F`, the remaining activity was 103%.
The remaining activity of `CC(C)(C)n1nc(Cc2cccc3ccccc23)c2c(N)ncnc21` is reported as 92.5%.
`CSc1nc(-c2ccnc(N[C@@H](C)c3ccccc3)c2)c(-c2ccc(F)cc2)[nH]1` (racemic) has a remaining activity of 97.5%.
With `CCc1[nH]c(-c2ccc(OC)cc2)nc1-c1ccncc1` the remaining activity was 96.3%.
`Nc1ncnc2c1cnn2-c1ccccc1` gave a remaining activity of 90.2%.
`CCCC(=O)Oc1ccc2[nH]c(C(=O)c3cc4ccccc4[nH]3)cc2c1` has a remaining activity of 98%.
The remaining activity of `CC(=O)c1ccc(N2CCOCC2)cc1O` is reported as 100%.
`Cc1ccc(NC2=CC(=O)c3sc(C)nc3C2=O)cc1` gave a remaining activity of 77.6%.
